Results from different studies.
A part holds a random share of what one study measured. Substitutions count along the parent as printed.

Block 1
Target: CCNA2, cyclin fold, Cln2 fusion (human)
Method: yeast growth competition, sequencing
Medium: yeast
Notes: strong parent motif
Baseline: not given
Reading: higher = stronger binding
Starting sequence: viral docking peptide; KGVKRKLFAEDSS
Substitution	normalised enrichment score
KGVKRKLFAEDFS [S12F]	6.46
KIVKRKLFAEDSS [G2I]	5.9
KGVWRKLFAEDSS [K4W]	3.88
KGVKQKLFAEDSS [R5Q]	2.79
KGAKRKLFAEDSS [V3A]	6.52

Other studies, line by line
CAMK2A: Calcium/calmodulin-dependent protein kinase type II subunit alpha (CAMK2A, Homo sapiens, UniProt Q9UQM7)
UniProt Q9UQM7, sequence (whole entry, looked up): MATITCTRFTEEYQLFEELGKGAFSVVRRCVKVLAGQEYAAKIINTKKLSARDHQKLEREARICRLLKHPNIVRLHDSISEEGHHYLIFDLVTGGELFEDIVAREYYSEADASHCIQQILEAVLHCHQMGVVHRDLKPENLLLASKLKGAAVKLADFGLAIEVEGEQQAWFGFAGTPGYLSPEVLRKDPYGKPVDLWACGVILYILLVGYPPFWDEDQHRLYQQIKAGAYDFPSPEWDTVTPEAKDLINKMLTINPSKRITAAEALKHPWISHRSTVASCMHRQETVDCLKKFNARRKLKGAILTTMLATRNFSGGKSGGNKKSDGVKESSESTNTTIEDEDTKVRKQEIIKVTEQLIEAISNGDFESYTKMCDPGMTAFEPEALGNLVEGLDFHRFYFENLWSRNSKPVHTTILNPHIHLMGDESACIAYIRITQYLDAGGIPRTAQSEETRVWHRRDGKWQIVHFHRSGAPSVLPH
SMILES	target or system	test	system	setting	quantity	value
CC(O)(CS(=O)(=O)c1ccc(F)cc1)C(=O)Nc1ccc(C#N)c(C(F)(F)F)c1 (stereo not shown)	Sarcocystis neurona	parasite activity	–	10 µM, 96 h	activity class	inactive
C[C@H]1CC[C@H]2[C@H](C)[C@@H]3CC[C@@H]4[C@@H](C[C@H]5[C@H]4C[C@@H](O)[C@H]4C[C@@H](O)CC[C@@]45C)[C@@H]3CN2C1	CAMK2A	enzyme activity, inhibitor	–	10 µM	inhibition	5%
C=CCN1CC[C@]23c4c5ccc(O)c4O[C@H]2C(=O)CC[C@@]3(O)[C@H]1C5	Sarcocystis neurona	parasite activity	–	10 µM, 96 h	activity class	inactive
CCN1C[C@@]2(COC)[C@H]3[C@@H](OC)[C@H]4[C@@H]1[C@]3([C@@H](OC)C[C@H]2OC(C)=O)[C@@H]1C[C@@]2(O)[C@H](OC(=O)c3ccccc3)[C@@H]1[C@]4(OC(C)=O)[C@@H](O)[C@@H]2OC	CAMK2A	enzyme activity, inhibitor	–	10 µM	inhibition	9%
O=C1CCC(N2Cc3c(ccc4c3OCC43CCN(Cc4ccccc4)CC3)C2=O)C(=O)N1 (stereo not shown)	–	metabolic stability	mouse, liver microsomes	1 µM	half-life	1.16 h

Excerpt of the above (block 1):
Substitution	normalised enrichment score
KGAKRKLFAEDSS [V3A]	6.52
